# Measurements collected from several papers.
# Compare with care: the assays were run in different laboratories. Numbers after ± are the reported error.
# Read-out: binding
# PTH1R: Parathyroid hormone/parathyroid hormone-related peptide receptor (PTH1R, Homo sapiens, UniProt Q03431)
# UniProt Q03431, sequence (whole entry, looked up): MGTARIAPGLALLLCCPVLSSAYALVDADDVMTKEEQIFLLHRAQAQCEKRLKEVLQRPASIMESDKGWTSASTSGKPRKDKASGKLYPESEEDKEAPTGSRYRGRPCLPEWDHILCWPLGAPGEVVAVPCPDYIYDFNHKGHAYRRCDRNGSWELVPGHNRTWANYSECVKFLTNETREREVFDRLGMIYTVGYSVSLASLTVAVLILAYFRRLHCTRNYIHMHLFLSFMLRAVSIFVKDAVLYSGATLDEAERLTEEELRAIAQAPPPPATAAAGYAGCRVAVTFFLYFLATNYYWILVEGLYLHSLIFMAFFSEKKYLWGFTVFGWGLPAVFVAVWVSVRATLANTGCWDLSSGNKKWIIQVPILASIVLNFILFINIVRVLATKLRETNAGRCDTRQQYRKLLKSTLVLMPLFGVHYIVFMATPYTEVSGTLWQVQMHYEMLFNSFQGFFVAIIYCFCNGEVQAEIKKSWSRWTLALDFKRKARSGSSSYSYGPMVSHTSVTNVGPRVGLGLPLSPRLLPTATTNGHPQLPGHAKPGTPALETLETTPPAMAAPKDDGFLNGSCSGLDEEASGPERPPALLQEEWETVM
# ACTA1: Actin, alpha skeletal muscle (ACTA1, Oryctolagus cuniculus, UniProt P68135)
# Alpha-mannosidase: Alpha-mannosidase (Canavalia ensiformis, UniProt C0HJB3)
# UniProt C0HJB3, sequence (whole entry, looked up): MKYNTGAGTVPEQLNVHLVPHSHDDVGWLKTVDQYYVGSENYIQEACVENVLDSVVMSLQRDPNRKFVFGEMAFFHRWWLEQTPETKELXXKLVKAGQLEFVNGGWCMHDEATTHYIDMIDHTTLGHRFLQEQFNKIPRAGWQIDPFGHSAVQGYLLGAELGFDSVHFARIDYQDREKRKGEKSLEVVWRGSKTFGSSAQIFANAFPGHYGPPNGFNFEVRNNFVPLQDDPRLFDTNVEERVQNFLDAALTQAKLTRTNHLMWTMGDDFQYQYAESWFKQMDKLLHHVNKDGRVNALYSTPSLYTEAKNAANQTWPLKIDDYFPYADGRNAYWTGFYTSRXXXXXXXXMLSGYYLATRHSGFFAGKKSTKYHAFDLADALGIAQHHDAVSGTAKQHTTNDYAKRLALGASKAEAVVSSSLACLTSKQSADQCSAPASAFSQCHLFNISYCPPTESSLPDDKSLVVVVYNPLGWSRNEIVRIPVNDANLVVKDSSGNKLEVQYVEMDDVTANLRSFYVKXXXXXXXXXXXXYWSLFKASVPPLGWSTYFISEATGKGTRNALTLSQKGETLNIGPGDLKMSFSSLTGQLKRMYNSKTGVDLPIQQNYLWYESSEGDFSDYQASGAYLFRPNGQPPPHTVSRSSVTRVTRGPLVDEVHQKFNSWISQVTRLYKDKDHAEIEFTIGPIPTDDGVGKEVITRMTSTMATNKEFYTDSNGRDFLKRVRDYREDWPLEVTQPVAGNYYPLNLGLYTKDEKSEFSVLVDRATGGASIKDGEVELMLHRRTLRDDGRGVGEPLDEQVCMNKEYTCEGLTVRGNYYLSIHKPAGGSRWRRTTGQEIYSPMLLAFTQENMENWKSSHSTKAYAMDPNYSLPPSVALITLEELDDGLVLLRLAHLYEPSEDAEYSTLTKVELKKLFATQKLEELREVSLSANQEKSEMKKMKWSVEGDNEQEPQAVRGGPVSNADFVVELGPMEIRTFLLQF
# UniProt Q07021, sequence (whole entry, looked up): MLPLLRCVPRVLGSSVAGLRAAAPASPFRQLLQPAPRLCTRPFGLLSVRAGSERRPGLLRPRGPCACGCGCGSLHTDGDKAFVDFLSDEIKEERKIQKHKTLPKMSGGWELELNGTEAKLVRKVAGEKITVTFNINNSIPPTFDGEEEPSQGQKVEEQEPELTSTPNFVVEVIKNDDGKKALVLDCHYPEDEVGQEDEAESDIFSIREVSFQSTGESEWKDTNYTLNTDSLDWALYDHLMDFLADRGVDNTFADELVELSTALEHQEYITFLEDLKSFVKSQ
# UniProt P51686, sequence (whole entry, looked up): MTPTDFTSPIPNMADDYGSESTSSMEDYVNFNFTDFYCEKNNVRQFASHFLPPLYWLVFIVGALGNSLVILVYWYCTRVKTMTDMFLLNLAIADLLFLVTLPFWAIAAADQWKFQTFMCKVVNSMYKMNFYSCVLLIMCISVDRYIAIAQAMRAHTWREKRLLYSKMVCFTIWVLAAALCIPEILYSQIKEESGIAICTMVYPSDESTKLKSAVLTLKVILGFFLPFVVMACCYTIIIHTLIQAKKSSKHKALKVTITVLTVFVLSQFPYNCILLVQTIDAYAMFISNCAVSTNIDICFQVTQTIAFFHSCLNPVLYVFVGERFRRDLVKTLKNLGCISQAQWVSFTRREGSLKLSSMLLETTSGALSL
SMILES,target,test,test system,conditions,kon [M⁻¹ s⁻¹]
CSCC[C@H](NC(=O)[C@H](CC(C)C)NC(=O)[C@H](CCC(N)=O)NC(=O)[C@H](Cc1c[nH]cn1)NC(=O)[C@H](CCC(=O)O)NC(=O)[C@H](CO)NC(=O)[C@@H](NC(=O)[C@@H](N)CO)C(C)C)C(=O)N[C@@H](Cc1c[nH]cn1)C(=O)N[C@@H](CC(N)=O)C(=O)N[C@@H](CC(C)C)C(=O)NCC(=O)N[C@@H](CCCCN)C(=O)N[C@@H](Cc1c[nH]cn1)C(=O)N[C@@H](CC(C)C)C(=O)N[C@@H](CC(N)=O)C(=O)N[C@@H](CO)C(=O)N[C@@H](CCSC)C(=O)N[C@@H](CCC(=O)O)C(=O)N[C@@H](CCCNC(=N)N)C(=O)N[C@H](C(=O)N[C@@H](CCC(=O)O)C(=O)N[C@@H](Cc1c[nH]c2ccccc12)C(=O)N[C@@H](CC(C)C)C(=O)N[C@@H](CCCNC(=N)N)C(=O)N[C@@H](CCCCN)C(=O)N[C@@H](CCCCN)C(=O)N[C@@H](CC(C)C)C(=O)N[C@@H](CCC(N)=O)C(=O)N[C@@H](CC(=O)O)C(=O)N[C@H](C(=O)N[C@@H](Cc1c[nH]cn1)C(=O)N[C@@H](CC(N)=O)C(=O)N[C@@H](Cc1ccccc1)C(=O)N[C@@H](CCCCNC(=O)c1ccc2c(c1)C1(OC2=O)c2ccc(N(C)C)cc2Oc2cc(N(C)C)ccc21)C(N)=O)C(C)C)C(C)C,PTH1R,NanoBRET,,"pH 6.5, MES buffer",680000 ± 300000
CC(C)[C@H](NC(=O)[C@H](CCCCN)NC(=O)[C@H](C)NC(=O)[C@H](CCCCN)NC(=O)CNC(=O)[C@H](CCCNC(=N)N)NC(=O)[C@@H](NC(=O)[C@H](CCCCN)NC(=O)[C@@H](N)CO)[C@@H](C)O)C(=O)N[C@H](C(=O)NCC(=O)N[C@@H](CCCNC(=N)N)C(=O)N[C@@H](Cc1c[nH]c2ccccc12)C(=O)N[C@@H](CCCCN)C(=O)O)[C@@H](C)O,ACTA1,SPR,,pH 7,4150
CSCC[C@H](NC(=O)[C@H](CO)NC(=O)[C@H](CC(N)=O)NC(=O)[C@H](CC(C)C)NC(=O)[C@H](Cc1c[nH]cn1)NC(=O)[C@H](CCCCN)NC(=O)CNC(=O)[C@H](CCCCN)NC(=O)[C@H](CC(=O)O)NC(=O)[C@H](Cc1c[nH]cn1)NC(=O)[C@H](CC(C)C)NC(=O)[C@H](CC(C)C)NC(=O)[C@H](CCC(N)=O)NC(=O)[C@H](Cc1c[nH]cn1)NC(=O)[C@H](CCC(=O)O)NC(=O)[C@H](CO)NC(=O)[C@@H](NC(=O)[C@H](C)N)C(C)C)C(=O)N[C@@H](CCC(=O)O)C(=O)N[C@@H](CCCNC(=N)N)C(=O)N[C@H](C(=O)N[C@@H](CCC(=O)O)C(=O)N[C@@H](Cc1c[nH]c2ccccc12)C(=O)N[C@@H](CC(C)C)C(=O)N[C@@H](CCCNC(=N)N)C(=O)N[C@@H](CCCCN)C(=O)N[C@@H](CCCCN)C(=O)N[C@@H](CC(C)C)C(=O)N[C@@H](CCC(N)=O)C(=O)N[C@@H](CC(=O)O)C(=O)N[C@H](C(=O)N[C@@H](Cc1c[nH]cn1)C(=O)N[C@@H](CC(N)=O)C(=O)N[C@@H](Cc1ccccc1)C(=O)N[C@@H](CCCCNC(=O)c1ccc2c(c1)C1(OC2=O)c2ccc(N(C)C)cc2Oc2cc(N(C)C)ccc21)C(N)=O)C(C)C)C(C)C,PTH1R,NanoBRET,HEK293 stably expressing receptor,"room temperature, 0.02% sodium azide, with: 5 µM coelenterazine h",590000 ± 100000
COc1cc(C(O)C(CO)c2ccc(O)c(OC)c2)ccc1O (stereo not drawn),Alpha-mannosidase,surface plasmon resonance,,25 °C,16.2
CN(C)c1ccc2c(-c3ccc(C(=O)NCCCn4cc(COc5cc(C(=O)c6cc(Cl)ccc6NS(=O)(=O)c6ccc(C(C)(C)C)cc6)cc[n+]5[O-])nn4)cc3C(=O)[O-])c3ccc(=[N+](C)C)cc-3oc2c1,"CCR9 (Homo sapiens, UniProt P51686)",BRET,,cell membranes,7980
O=c1c2ccccc2nc2n1CCC2O (stereo not drawn),Alpha-mannosidase,surface plasmon resonance,,25 °C,3.91
CC(C)[C@H](NC(=O)[C@H](CCCCN)NC(=O)[C@H](C)NC(=O)[C@H](CCCCN)NC(=O)CNC(=O)[C@H](CCCNC(=N)N)NC(=O)[C@@H](NC(=O)[C@H](CCCCN)NC(=O)[C@@H](N)CO)[C@@H](C)O)C(=O)N[C@H](C(=O)NCC(=O)N[C@@H](CS)C(=O)N[C@@H](Cc1c[nH]c2ccccc12)C(=O)N[C@@H](CCCCN)C(=O)O)[C@@H](C)O,ACTA1,SPR,,pH 7,1570
O=C(CCO)c1ccc(O)cc1,Alpha-mannosidase,surface plasmon resonance,,25 °C,9.92
C[C@@H](O)[C@@H]1NC(=O)[C@H](CCCNC(=N)N)NC(=O)[C@H](CCCCN)NC(=O)[C@H](CC(N)=O)NC(=O)CNC(=O)[C@@H](N)CSSC[C@@H](C(=O)O)NC(=O)CNC(=O)[C@H](CCCNC(=N)N)NC1=O,"C1QBP (Homo sapiens, UniProt Q07021)",SPR,,,20200

# For quick reference, copied from above:
SMILES,target,test,test system,conditions,kon [M⁻¹ s⁻¹]
CSCC[C@H](NC(=O)[C@H](CO)NC(=O)[C@H](CC(N)=O)NC(=O)[C@H](CC(C)C)NC(=O)[C@H](Cc1c[nH]cn1)NC(=O)[C@H](CCCCN)NC(=O)CNC(=O)[C@H](CCCCN)NC(=O)[C@H](CC(=O)O)NC(=O)[C@H](Cc1c[nH]cn1)NC(=O)[C@H](CC(C)C)NC(=O)[C@H](CC(C)C)NC(=O)[C@H](CCC(N)=O)NC(=O)[C@H](Cc1c[nH]cn1)NC(=O)[C@H](CCC(=O)O)NC(=O)[C@H](CO)NC(=O)[C@@H](NC(=O)[C@H](C)N)C(C)C)C(=O)N[C@@H](CCC(=O)O)C(=O)N[C@@H](CCCNC(=N)N)C(=O)N[C@H](C(=O)N[C@@H](CCC(=O)O)C(=O)N[C@@H](Cc1c[nH]c2ccccc12)C(=O)N[C@@H](CC(C)C)C(=O)N[C@@H](CCCNC(=N)N)C(=O)N[C@@H](CCCCN)C(=O)N[C@@H](CCCCN)C(=O)N[C@@H](CC(C)C)C(=O)N[C@@H](CCC(N)=O)C(=O)N[C@@H](CC(=O)O)C(=O)N[C@H](C(=O)N[C@@H](Cc1c[nH]cn1)C(=O)N[C@@H](CC(N)=O)C(=O)N[C@@H](Cc1ccccc1)C(=O)N[C@@H](CCCCNC(=O)c1ccc2c(c1)C1(OC2=O)c2ccc(N(C)C)cc2Oc2cc(N(C)C)ccc21)C(N)=O)C(C)C)C(C)C,PTH1R,NanoBRET,HEK293 stably expressing receptor,"room temperature, 0.02% sodium azide, with: 5 µM coelenterazine h",590000 ± 100000
